Experimental data pooled from the literature.
“And” joins repeats or separate records; there may be more than shown. Numbers after ± are the reported error. No end group written: not given here.
B1: human DHRS2; sequence looked up; chain SSTGIDRKGVLANRVAVVTGSTSGIGFAIARRLARDGAHVVISSRKQQNVDRAMAKLQGEGLSVAGIVCHVGKAEDREQLVAKALEHCGGVDFLVCSAGVNPLVGSTLGTSEQIWDKILSVNVKSPALLLSQLLPYMENRRGAVILVSSIAAYNPVVALGVYNVSKTALLGLTRTLALELAPKDIRVNCVVPGIIKTDFSKVFHGNESLWKNFKEHHQLQRIGESEDCAGIVSFLCSPDASYVNGENIAVAGYSTRL
B2: bicyclic; chain AATCHCRRSCYSTEYSYGTCTVMGINHRFCCL (also: bicyclic or more (positions not given here))
B3: human SDHA; sequence looked up; chain ASAKVSDSISAQYPVVDHEFDAVVVGAGGAGLRAAFGLSEAGFNTACVTKLFPTRSHTVAAQGGINAALGNMEEDNWRWHFYDTVKGSDWLGDQDAIHYMTEQAPAAVVELENYGMPFSRTEDGKIYQRAFGGQSLKFGKGGQAHRCCCVADRTGHSLLHTLYGRSLRYDTSYFVEYFALDLLMENGECRGVIALCIEDGSIHRIRAKNTVVATGGYGRTYFSCTSAHTSTGDGTAMITRAGLPCQDLEFVQFHPTGIYGAGCLITEGCRGEGGILINSQGERFMERYAPVAKDLASRDVVSRSMTLEIREGRGCGPEKDHVYLQLHHLPPEQLATRLPGISETAMIFAGVDVTKEPIPVLPTVHYNMGGIPTNYKGQVLRHVNGQDQIVPGLYACGEAACASVHGANRLGANSLLDLVVFGRACALSIEESCRPGDKVPPIKPNAGEESVMNLDKLRFADGSIRTSELRLSMQKSMQNHAAVFRVGSVLQEGCGKISKLYGDLKHLKTFDRGMVWNTDLVETLELQNLMLCALQTIYGAEARKESRGAHAREDYKVRIDEYDYSKPIQGQQKKPFEEHWRKHTLSYVDVGTGKVTLEYRPVIDKTLNEADCATVPPAIRSY

With `Teicoplanin` the recovery was 97.5% (item: stability; human serum; time not given, high QC, 3 freeze-thaw cycles).
`enterolactone sulfate` has a plasma concentration of 501 nM (human, plasma; dose not given, mean).
The bias of `C-peptide` is reported as 8.8% (prepared human sample; two freeze-thaw cycles; reference: untreated control).
With `caspofungin` the alkaline phosphatase was 167 U/L (adult ICU patients, mITT, serum; dose not given, EOT).
With `equol sulfate` the plasma concentration was 825 nM (human, plasma; dose not given, median).
For `[177Lu]Lu-DOTA-TATE`, the remaining compound was > 90% (solution; up to 24 h).
`protopine` — result for “amount in fetal perfusate”: 14 ± 3.7% (placenta perfusion; 360 min; reference: initial amount).
Under “short-term stability accuracy”, `regorafenib N-β-glucuronide` is recorded as 102% (mouse plasma; 25 ng/mL, 8 h, room temperature).
`coproporphyrin I` — result for “diurnal variation (Cmax-Cmean)/Cmean”: 21.1 ± 2.2% (human, plasma; dose not given, control period).
For `coproporphyrin I`, the Tmax was ≤ 120 min (human, serum; 20 mg ezetimibe, ezetimibe alone).
`B1 (human DHRS2)`: “log2 fold change” -5.37 (PP6C (human); co-immunoprecipitation, IP-MS; CYB5R4 knockout cells; concentration not given; reference: CYB5R4 knockout over parental).
With `CTOP` the retention time was 7.28 min (RP-HPLC; HALO C18 column; 25 µM, acetic acid/acetonitrile, 25 min gradient).
The molecular mass of `B2` is reported as 4.63 kDa (sedimentation velocity ultracentrifugation; 10 mM sodium phosphate; 100 µM, pH 7.4, 20 °C).
`FNA / CGLSGLGVA-NH2 ([18F]FNA-labelled, C-amide)` gave a tissue uptake of 0.55 %ID/g (ex vivo gamma counting; peptide, healthy mouse, liver; 60 min post injection).
`coproporphyrin III` has a serum concentration of 0.782 nM (human, serum; oral, dose not given, 3 h, geometric mean, added: ezetimibe plus rifampin).
Under “log2 fold change”, `B3 (human SDHA)` is recorded as -1.49 (PP6C (human); co-immunoprecipitation, IP-MS; CYB5R4 knockout cells; concentration not given; reference: CYB5R4 knockout over parental).
With `Polymyxin B` the concentration was 1590 ng/mL and 1410 ng/mL and 970 ng/mL and 1310 ng/mL and 1050 ng/mL and 910 ng/mL (LC-MS; Sprague-Dawley rat, brain stem; intracerebroventricular, 0.75 mg/kg, 1 h).
The t1/2 alpha of `Cy5.5` is reported as 27 min (IVIS fluorescence, two-compartment model; BALB/c mouse, tumour-free, blood).
